Published values pooled from the literature.
Every numbered part comes from another study and shows a few of its results, in no order. Substitutions count along the parent as printed.

Sample 1
Target: UBE2L3 UBC core domain (UniProt P68036)
UniProt P68036, sequence (whole entry, looked up): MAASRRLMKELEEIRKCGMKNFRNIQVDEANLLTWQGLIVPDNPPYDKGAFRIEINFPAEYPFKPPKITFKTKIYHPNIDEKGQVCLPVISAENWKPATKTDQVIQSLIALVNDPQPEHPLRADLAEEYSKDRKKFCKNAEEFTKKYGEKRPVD
Technique: yeast two-hybrid
Medium: yeast
Setting: mostly zero background
Baseline: not given
Reading: higher = stronger interaction
B1: VPS41 RING domain (UniProt P49754); chain KGVLVDEENICESCLSPILPSDAAKPFSVVVFHCRHMFHKECLPMPSMNSAAQFCNICSAKNRGPGSAI
B2: NEURL1 RING domain (UniProt O76050); chain VTPGLGQWSDECTICYEHAVDTVIYTCGHMCLCYACGLRLKKALHACCPICRRPIKDIIKT
B3: TRAF5 RING domain (UniProt O00463); chain FVERLEERYKCAFCHSVLHNPHQTGCGHRFCQHCILSLRELNTVPICPVDKEVIKSQEVFK
B4: RNF111 RING domain (UniProt Q6ZNA4); chain EGTEEDTEEKCTICLSILEEGEDVRRLPCMHLFHQVCVDQWLITNKKCPICRVDIEAQLPSE
B5: TRIM13 RING domain (UniProt O60858); chain MELLEEDLTCPICCSLFDDPRVLPCSHNFCKKCLEGILEGSVRNSLWRPAPFKCPTCRKETSATGINS
B6: RC3H1 RING domain (UniProt Q5TC82); chain QAPQWTDFLSCPICTQTFDETIRKPISLGCGHTVCKMCLNKLHRKACPFDQTTINTDIELL
Molecule | lacZ reporter activity
DHGAVGQEMCCPICCSEYVKGEVATELPCHHYFHKPCVSIWLQKSGTCPVCRCMFPPPL (PJA1 RING domain (UniProt Q8NG27)) | 0
B1 (VPS41 RING domain) | 0
B2 (NEURL1 RING domain) | 0
B3 (TRAF5 RING domain) | 0
GAAPGPEAAECLVCSELALLVLFSPCQHRTVCEECARRMKKCIRCQVVVSKKLRPD (MIB2 RING domain (UniProt Q96AX9)) | 0
B4 (RNF111 RING domain) | 0
B5 (TRIM13 RING domain) | 0
B6 (RC3H1 RING domain) | 0

Sample 2
Target: JDP2, bZIP domain (human)
Technique: DHFR protein complementation
Medium: yeast
Setting: single substitutions, most at no-binding floor
Baseline: wild-type JUN-FOS pair
Reading: higher = stronger binding
Parent: JUN, bZIP domain (human); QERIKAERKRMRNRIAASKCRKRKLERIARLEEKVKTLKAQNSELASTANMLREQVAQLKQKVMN; partner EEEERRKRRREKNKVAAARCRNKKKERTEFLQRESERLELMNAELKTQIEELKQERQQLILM
Variant | binding fitness [natural log]
K36E | 0.315
E44Q | 0.262
S47Y | 0.235
L52M | 0.15
V56C | 0.205
E32V | 0.226
L45I | 0.0668
N42P | -1.32
S43M | 0.25
E32D | 0.352
L31D | 0.197
E54V | 0.177
S43K | 0.361
K34L | 0.328
V35Y | 0.292
V56K | -0.356
A40M | 0.214
R53Q | 0.209
S43R | 0.323
A49H | 0.21
A46H | 0.227
L52F | 0.0777
V56G | -0.263
L52V | 0.196
T37K | 0.322

Sample 3
Target: CCNB3, cyclin fold, Cln2 fusion (human)
Technique: yeast growth competition, sequencing
Medium: yeast
Setting: weak parent motif
Baseline: not given
Reading: higher = stronger binding
Parent: PKMYT1 docking peptide (human); SFEPRNLLSLFED; partner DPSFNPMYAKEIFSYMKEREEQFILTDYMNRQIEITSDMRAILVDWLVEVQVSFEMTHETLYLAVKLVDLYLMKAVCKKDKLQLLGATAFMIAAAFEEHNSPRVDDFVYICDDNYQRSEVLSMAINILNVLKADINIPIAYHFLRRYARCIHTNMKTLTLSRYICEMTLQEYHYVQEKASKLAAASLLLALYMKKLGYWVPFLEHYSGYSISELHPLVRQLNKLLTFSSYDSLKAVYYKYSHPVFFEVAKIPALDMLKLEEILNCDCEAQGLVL
Variant | normalised enrichment score
L7F | 0.63
F2H | -0.0573
E12L | 0.122
D13R | 0.492
R5V | 0.274
F2P | 0.978
E3L | 0.263
L7A | 0.821
L10T | 0.644
L10Q | 0.794
E3D | 0.317
F2K | 0.105
E3A | 0.258
P4H | 0.012
F2N | -0.103
L8M | 0.332
E12M | 0.141
L8R | 0.363
L7V | 0.349
S1H | 0.0364
R5A L7A | -0.0517

Sample 4
Target: ABI1, truncated, D143A, DHFR fusion (Arabidopsis thaliana)
Technique: DHFR PCA, deep sequencing
Medium: yeast
Setting: methotrexate growth selection, single substitutions
Added: (+)-ABA 0 µM
Baseline: wild-type fitted maximum
Reading: higher = stronger binding
Parent: PYL1, truncated, DHFR fusion (Arabidopsis thaliana); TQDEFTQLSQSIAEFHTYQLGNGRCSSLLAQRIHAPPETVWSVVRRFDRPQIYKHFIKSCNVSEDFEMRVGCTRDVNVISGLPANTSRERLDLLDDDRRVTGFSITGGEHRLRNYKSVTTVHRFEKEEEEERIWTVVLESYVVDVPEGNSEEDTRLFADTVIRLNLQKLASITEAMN; partner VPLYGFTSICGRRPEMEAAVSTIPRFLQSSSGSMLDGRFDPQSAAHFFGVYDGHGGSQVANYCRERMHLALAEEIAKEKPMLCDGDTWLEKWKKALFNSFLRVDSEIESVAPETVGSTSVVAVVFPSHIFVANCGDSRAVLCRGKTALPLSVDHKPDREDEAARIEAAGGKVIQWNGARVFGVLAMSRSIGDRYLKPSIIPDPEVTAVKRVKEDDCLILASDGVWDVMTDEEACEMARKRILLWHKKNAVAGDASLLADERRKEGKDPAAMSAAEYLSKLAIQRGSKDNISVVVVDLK
Variant | relative binding score [%]
R99H | 26.7
T1V | 32.6
P83V | 6.44
R74M | 1.17
V145F | -21.4
T135P | -6.44
R155N | -5.65
T135H | -12.1
Y18G | 1.04
Y115N | 1.31
A35N | -0.814
E128R | 14.7
G102Q | 1.48
F15V | 0.343
L82S | 7.63
S104C | -0.644

Excerpt of the above (sample 4):
Variant | relative binding score [%]
R74M | 1.17
V145F | -21.4
T135P | -6.44
R155N | -5.65
T135H | -12.1
Y18G | 1.04
Y115N | 1.31
A35N | -0.814
E128R | 14.7
G102Q | 1.48
F15V | 0.343
L82S | 7.63
